Measured values from different studies.
Lines come from different studies, so protocols differ. ± marks the error that the study gave.
B1: colicin E1 fragment 1–100; chain METAVAYYKDGVPYDDKGQVIITLLNGTPDGSGSGGGGGKGGSKSESSAAIHATAKWSTAQLKKTQAEQAARAKAAAEAQAKAKANRDALTQRLKDIVNE

N=C(N)NCCC[C@@H]1NC(=O)[C@H](CCCCNC(=O)CNC(=O)CNC(=O)CNC(=O)CC[C@H](NC(=O)CCOCCOCCOCCOCCNC(=O)c2ccc(NN)nc2)C(=O)NCC(=O)NCC(=O)NCC(=O)NCCCC[C@@H]2NC(=O)[C@@H](Cc3ccccc3)NC(=O)[C@H](CC(=O)O)NC(=O)CNC(=O)[C@H](CCCNC(=N)N)NC2=O)NC(=O)[C@@H](Cc2ccccc2)NC(=O)[C@H](CC(=O)O)NC(=O)CNC1=O [technetium-99m labelled]  tissue uptake (γ-counting; female athymic nude mice, U-87 MG xenograft, intestine; intravenous, 2 h): 4.74 ± 1.09 %ID/g
COc1cccc2c1C(=O)c1c(O)c3c(c(O)c1C2=O)C[C@@](O)(C(=O)CO)C[C@@H]3O[C@H]1C[C@H](NC(=O)[C@H](CC(C)C)NC(=O)[C@H](C)NC(=O)[C@H](CC(C)C)NC(=O)CCNC(=O)CCC(=O)O)[C@H](O)[C@H](C)O1  AUC (mouse, E0771 tumour-bearing, tumor; intravenous, 92 µmol/kg): 25.6 µM·h
B1 (colicin E1 fragment 1–100)  helical content (far-UV CD; peptide, 50 mM sodium phosphate): 25 ± 3%
COc1cccc2c1C(=O)c1c(O)c3c(c(O)c1C2=O)C[C@@](O)(C(=O)CO)C[C@@H]3O[C@H]1C[C@H](NC(=O)[C@@H]2CCCN2C(=O)CNC(=O)[C@H](CC(C)C)NC(=O)[C@H](C)NC(=O)CP(=O)(O)O)[C@H](O)[C@H](C)O1  Tmax (mouse, E0771 tumour-bearing, heart; intravenous, 92 µmol/kg): 5 min
CCCCCCCCCCCCCCCCCCSC1CC(=O)N(CCC(=O)NCCOCCOCCOCCOCCOCCOCCOCCOCCOCCOCCOCCOCCOCCOCCOCCOCCOCCOCCOCCOCCOCCOCCOCCOCCC(=O)NC(COCCC(=O)NCCOCCOCCOCCOCCC(=O)NCCCC[C@@H](NC(=O)CNC(=O)[C@@H](CC(C)C)NC(=O)[C@@H](CCC(=O)O)NC(=O)[C@H]2CSSC[C@@H](NC(=O)[C@H]3CCCN3C(=O)[C@@H](Cc3c[nH]cn3)NC(C)=O)C(=O)N[C@H](CC(=O)O)C(=O)N[C@H](Cc3ccc(O)cc3)C(=O)N3CCC[C@@H]3C(=O)N[C@H](CCC(=O)O)C(=O)N[C@H](Cc3c[nH]c4ccccc34)C(=O)N[C@H](CCC(N)=O)C(=O)N[C@H](Cc3c[nH]c4ccccc34)C(=O)N[C@H](CC(C)C)C(=O)N2)C(N)=O)(COCCC(=O)NCCOCCOCCOCCOCCC(=O)NCCCC[C@@H](NC(=O)CNC(=O)[C@@H](CC(C)C)NC(=O)[C@@H](CCC(=O)O)NC(=O)[C@H]2CSSC[C@@H](NC(=O)[C@H]3CCCN3C(=O)[C@@H](Cc3c[nH]cn3)NC(C)=O)C(=O)N[C@H](CC(=O)O)C(=O)N[C@H](Cc3ccc(O)cc3)C(=O)N3CCC[C@@H]3C(=O)N[C@H](CCC(=O)O)C(=O)N[C@H](Cc3c[nH]c4ccccc34)C(=O)N[C@H](CCC(N)=O)C(=O)N[C@H](Cc3c[nH]c4ccccc34)C(=O)N[C@H](CC(C)C)C(=O)N2)C(N)=O)COCCC(=O)NCCOCCOCCOCCOCCC(=O)NCCCC[C@@H](NC(=O)CNC(=O)[C@@H](CC(C)C)NC(=O)[C@@H](CCC(=O)O)NC(=O)[C@H]2CSSC[C@@H](NC(=O)[C@H]3CCCN3C(=O)[C@@H](Cc3c[nH]cn3)NC(C)=O)C(=O)N[C@H](CC(=O)O)C(=O)N[C@H](Cc3ccc(O)cc3)C(=O)N3CCC[C@@H]3C(=O)N[C@H](CCC(=O)O)C(=O)N[C@H](Cc3c[nH]c4ccccc34)C(=O)N[C@H](CCC(N)=O)C(=O)N[C@H](Cc3c[nH]c4ccccc34)C(=O)N[C@H](CC(C)C)C(=O)N2)C(N)=O)C1=O (stereo partly shown)  C0 (Sprague Dawley rat, plasma; intravenous, 1.0 mg/kg, median, together with: Palm-PIE12-trimer 1.2 mg/kg): 900 nM
N=C(N)NCCC[C@@H]1NC(=O)[C@H](CCCCNC(=O)[C@H](CC(=O)O)NC(=O)[C@H](CC(=O)O)NC(=O)[C@H](CC(=O)O)NC(=O)CC[C@H](NC(=O)CCOCCOCCOCCOCCNC(=O)c2ccc(NN)nc2)C(=O)N[C@@H](CC(=O)O)C(=O)N[C@@H](CC(=O)O)C(=O)N[C@@H](CC(=O)O)C(=O)NCCCC[C@@H]2NC(=O)[C@@H](Cc3ccccc3)NC(=O)[C@H](CC(=O)O)NC(=O)CNC(=O)[C@H](CCCNC(=N)N)NC2=O)NC(=O)[C@@H](Cc2ccccc2)NC(=O)[C@H](CC(=O)O)NC(=O)CNC1=O [technetium-99m labelled]  tissue uptake (U-87 MG xenograft athymic nude mice, tumor; intravenous, 60 min, together with: RGD2 14 mg/kg co-injected): 0.3 ± 0.01 %ID/g
CC(C)C[C@@H]1NC(=O)[C@@H]2CSSC[C@@H](C(=O)NCC(N)=O)NC(=O)[C@H](Cc3ccccc3)NC(=O)CNC(=O)[C@H](CC(N)=O)NC(=O)[C@@H]3CCCN3C(=O)CNC(=O)[C@@H]3CSSC[C@H](NC(=O)[C@H](CO)NC(=O)[C@H]([C@@H](C)O)NC(=O)[C@@H]4CCCN4C(=O)[C@H](C)NC(=O)[C@H](Cc4c[nH]c5ccccc45)NC(=O)[C@H](CC(=O)O)NC(=O)CNC(=O)[C@H](CCCNC(=N)N)NC(=O)CNC(=O)[C@H](CCC(N)=O)NC(=O)[C@@H]4CCCN4C(=O)[C@@H](NC(=O)CNC(=O)CN4CCN(CC(=O)O)CCN(CC(=O)O)CCN(CC(=O)O)CC4)CSSC[C@H](NC(=O)CNC(=O)[C@H](C)NC1=O)C(=O)N[C@@H](C(C)C)C(=O)N3)C(=O)N[C@@H](CO)C(=O)N[C@@H](CCC(N)=O)C(=O)N[C@@H](CC(=O)O)C(=O)N[C@@H](CO)C(=O)N[C@@H](CC(=O)O)C(=O)N2 [copper-64 labelled]  tissue uptake (64Cu microPET; female nude mice, U-87 MG xenograft, tumour; intravenous, 1 h): 4.47 ± 1.21 %ID/g
CC(=O)N(O)CCCCCNC(=O)CCC(=O)N(O)CCCCCNC(=O)CCC(=O)N(O)CCCCCNC(=S)Nc1ccc(NC(=S)NCCOCCOCCOCCOCCC(=O)N[C@@H](CCC(=O)NCCOCCOCCOCCOCCC(=O)NCCCC[C@@H]2NC(=O)[C@@H](Cc3ccccc3)NC(=O)[C@H](CC(=O)O)NC(=O)CNC(=O)[C@H](CCCNC(=N)N)NC2=O)C(=O)NCCOCCOCCOCCOCCC(=O)NCCCC[C@@H]2NC(=O)[C@@H](Cc3ccccc3)NC(=O)[C@H](CC(=O)O)NC(=O)CNC(=O)[C@H](CCCNC(=N)N)NC2=O)cc1 [zirconium-89 labelled]  tissue uptake (athymic nude mice female tumour-bearing, kidneys; intravenous, 100 µCi, 4 h): 5.93 ± 0.93 %ID/g
melittin  heat capacity change (membrane partitioning, CD van't Hoff analysis; POPC/POPG LUVs 90:10%; concentration not given, 5 to 60 °C): -0.47 kcal/mol/K
COc1cccc2c1C(=O)c1c(O)c3c(c(O)c1C2=O)C[C@@](O)(C(=O)CO)C[C@@H]3O[C@H]1C[C@H](NC(=O)CCC(=O)NCCOCCOCCOCC(=O)N[C@H]2CSSC[C@@H](C(=O)O)NC(=O)[C@H](C(C)C)NC(=O)[C@H](CO)NC(=O)CNC(=O)CNC(=O)[C@H](CCCNC(=N)N)NC(=O)[C@@H]3CCCN3C2=O)[C@H](O)[C@H](C)O1  distribution coefficient (shake flask; n-octanol/PBS; 2.0 µM, pH 7.4): 0.9
Cc1ccccc1NC(=O)Nc1ccc(CC(=O)N[C@@H](CCCCNC(=O)/C=C/c2cccnc2)C(=O)N[C@@H](CCCC(=O)O)C(=O)NC2(C(=O)NCCOCCOCCOCCOCC(=O)N[C@@H](CCCCNC(=S)Nc3ccc(C[C@H]4CN(CC(=O)O)CCN(CC(=O)O)CCN4CC(=O)O)cc3)C(N)=O)CCCCC2)cc1 [fluorine-18 labelled]  tissue uptake (female C57BL/6 mice, B16-F10 tumour, liver; intravenous, 2 h): 11 ± 1.2 %ID/g
CCN1C(=CC=CC=CC2=[N+](CCCCCC(=O)NCCCC[C@H](NC(=O)CN3CCN(CC(=O)O)CCN(CC(=O)O)CCN(CC(=O)O)CC3)C(=O)NCC(=O)NCC(=O)N[C@@H](Cc3ccc(O)cc3)C(=O)NCC(=O)N[C@H]3CSSC[C@@H]4NC(=O)CNC(=O)[C@H](C)NC(=O)[C@H](CC(C)C)NC(=O)[C@@H]5CSSC[C@@H](C(=O)NCC(N)=O)NC(=O)[C@H](Cc6ccccc6)NC(=O)CNC(=O)[C@H](CC(N)=O)NC(=O)[C@@H]6CCCN6C(=O)CNC(=O)[C@H](CSSC[C@H](NC(=O)[C@H](CO)NC(=O)[C@H]([C@@H](C)O)NC(=O)[C@@H]6CCCN6C(=O)[C@H](C)NC(=O)[C@H](Cc6c[nH]c7ccccc67)NC(=O)[C@H](CC(=O)O)NC(=O)CNC(=O)[C@H](CCCNC(=N)N)NC(=O)CNC(=O)[C@H](CCC(N)=O)NC(=O)[C@@H]6CCCN6C3=O)C(=O)N[C@@H](CO)C(=O)N[C@@H](CCC(N)=O)C(=O)N[C@@H](CC(=O)O)C(=O)N[C@@H](CO)C(=O)N[C@@H](CC(=O)O)C(=O)N5)NC(=O)[C@H](C(C)C)NC4=O)c3ccc4c(S(=O)(=O)[O-])cc(S(=O)(=O)O)cc4c3C2(C)C)C(C)(C)c2c1ccc1c(S(=O)(=O)O)cc(S(=O)(=O)O)cc21 (single isomer, unassigned) [copper-64 labelled]  tumour uptake (microPET; female athymic nude mouse, U-87 MG xenograft, tumour; intravenous, 100 µCi, 2 h): 4.19 ± 0.36 %ID/g
CSCC[C@H](NC(=O)[C@H](CC(C)C)NC(=O)[C@H](Cc1cnc[nH]1)NC(=O)CNC(=O)[C@@H](NC(=O)[C@H](C)NC(=O)[C@H](Cc1c[nH]c2ccccc12)NC(=O)[C@H](CCC(N)=O)NC(=O)CCCCCCCNC(=O)CN1CCN(CC(=O)O)CCN(CC(=O)O)CCN(CC(=O)O)CC1)C(C)C)C(N)=O  excreted dose (ICR SCID mouse (PC-3 tumour), urine and bladder contents; intravenous, 185 kBq, 1 h): 72.5 ± 0.96%

Excerpt of the above:
N=C(N)NCCC[C@@H]1NC(=O)[C@H](CCCCNC(=O)[C@H](CC(=O)O)NC(=O)[C@H](CC(=O)O)NC(=O)[C@H](CC(=O)O)NC(=O)CC[C@H](NC(=O)CCOCCOCCOCCOCCNC(=O)c2ccc(NN)nc2)C(=O)N[C@@H](CC(=O)O)C(=O)N[C@@H](CC(=O)O)C(=O)N[C@@H](CC(=O)O)C(=O)NCCCC[C@@H]2NC(=O)[C@@H](Cc3ccccc3)NC(=O)[C@H](CC(=O)O)NC(=O)CNC(=O)[C@H](CCCNC(=N)N)NC2=O)NC(=O)[C@@H](Cc2ccccc2)NC(=O)[C@H](CC(=O)O)NC(=O)CNC1=O [technetium-99m labelled]  tissue uptake (U-87 MG xenograft athymic nude mice, tumor; intravenous, 60 min, together with: RGD2 14 mg/kg co-injected): 0.3 ± 0.01 %ID/g
